Assay results of several laboratories.
Each numbered part is a random draw from the data of one study; scales do not carry over between parts.

Block 1
Target: Interferon regulatory factor 7, full length, phosphomimetic (IRF7, Homo sapiens, UniProt Q92985, residues 1-503, S471D/S472D/S475D/S476D/S477D/S483D/S484D/S487D)
Method: protein-binding microarray
Molecule type: double-stranded DNA, one strand shown
Sample: in vitro
Concentration: 2200 nM top
Setting: 60-bp whole probe
Together with: salmon DNA 0.4 mg/ml
Relative to: random background probes
Reading: higher = stronger binding
Shared flanks, not repeated: GCCTAGCAC … GTCTTGATTCGCTTGACGCTGCTG
Residues (chain): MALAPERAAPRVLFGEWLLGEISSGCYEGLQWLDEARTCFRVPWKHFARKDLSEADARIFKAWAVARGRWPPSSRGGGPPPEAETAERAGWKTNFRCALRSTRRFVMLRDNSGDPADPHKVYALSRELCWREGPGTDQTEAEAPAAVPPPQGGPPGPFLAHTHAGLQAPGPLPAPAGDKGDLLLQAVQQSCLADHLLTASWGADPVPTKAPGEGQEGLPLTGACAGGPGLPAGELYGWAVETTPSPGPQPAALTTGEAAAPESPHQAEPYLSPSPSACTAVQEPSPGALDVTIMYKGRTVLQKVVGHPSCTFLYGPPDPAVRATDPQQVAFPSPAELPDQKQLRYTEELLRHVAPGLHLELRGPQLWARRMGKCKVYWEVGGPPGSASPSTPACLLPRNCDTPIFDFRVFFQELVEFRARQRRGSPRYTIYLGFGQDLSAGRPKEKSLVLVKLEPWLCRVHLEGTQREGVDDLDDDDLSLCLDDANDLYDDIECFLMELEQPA
| Oligonucleotide | fitted relative affinity [z-score] |
| --- | --- |
| TTAGTTTTCGGGTTTCGATTAGTGCTA | 10.1 |
| TTAGATCTCAGTTTCGATTTGTGCTAG | 11.5 |
| GACGGCTTCCTTCTCCTGACGTGCTAG | 1.03 |
| TCAAAATGATTGGTTGAACTGTGCTAG | -0.41 |
| TCATGCTTCGAGATCTCACTGTGCTAG | 1.21 |
| GACGATTTCGCGTTTCGAGACGTGCTA | 3.05 |
| GACGGACTGGGATTTCGGGACGTGCTA | -0.0103 |
| GACGGGTTCGACTATCGGGACGTGCTA | 0.0837 |
| GACGGACTGGGGTTCGGGACGTGCTAG | -0.757 |
| GACGGCCTCGGTATCGGGACGTGCTAG | -0.605 |
| TCATATATTATATATACAACTGTGCTA | 0.513 |
| TCAAATAATCTTTTCACACTGTGCTAG | 0.252 |
| TTAGATTCCAGTTTCGACTAGTGCTAG | 4.11 |
| TTAGGACTGAGTTTCGATTAGTGCTAG | 3.68 |
| GACGGCCTGGGTTTCGGGACGTGCTAG | 0.705 |
| CCCAATCTCTCTTCACATATGTGCTAG | 1.46 |
| GGAGGCTCTTGCTACTGAAGGTGCTAG | -0.828 |
| TTTTTTTTGCAAGCTAAAAAAGTGCTA | -0.231 |
| TCAGTTTCCATTTTCAGACTGTGCTAG | 7.43 |
| TTAGATATCAGTCTCAATTAGTGCTAG | -0.184 |

Block 2
Target: RING finger protein unkempt homolog, zinc fingers 1-6, GST-SBP tag (UNK, Homo sapiens, UniProt Q9C0B0, residues 30-357)
Method: RNA Bind-n-Seq
Molecule type: RNA
Sample: in vitro
Concentration: not given
Setting: RNA with constant flanks, human-mouse chimeric sites, ends assumed
Relative to: input RNA pool
Reading: higher = stronger binding
Residues (chain): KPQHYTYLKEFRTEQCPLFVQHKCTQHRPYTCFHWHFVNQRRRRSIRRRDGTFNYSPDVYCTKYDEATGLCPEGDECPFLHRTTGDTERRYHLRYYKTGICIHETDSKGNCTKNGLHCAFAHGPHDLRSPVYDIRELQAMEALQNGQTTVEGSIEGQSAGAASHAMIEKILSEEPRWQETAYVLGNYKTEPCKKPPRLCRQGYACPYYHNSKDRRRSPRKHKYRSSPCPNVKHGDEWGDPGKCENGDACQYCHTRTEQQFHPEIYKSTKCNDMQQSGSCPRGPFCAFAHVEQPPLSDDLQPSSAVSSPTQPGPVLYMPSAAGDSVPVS
| Oligonucleotide | bound/input enrichment |
| --- | --- |
| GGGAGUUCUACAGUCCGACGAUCGGGACUGAUUCAUCCCAAGGACAGGCCACCCCAUUUGAUGCCUGGACUGACGACAGUAUGUUAGGGCCUAGUCAAAAUGUUGAAGCUGAGUCAAUUCAGGAUGCCAUGAGUAUGGAAGAGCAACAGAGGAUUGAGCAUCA | 0.46 ratio |
| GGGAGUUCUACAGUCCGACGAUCCCUCUGCCCCGCUCUGCAGCCUGGGGACACUGGGCUGGGACCAGAAUCCAGCUUUCUUUUAAAACUCUCAGUGUAACUGUAUCCCGUGACAUUUCAUUUUUUUUUUAUAGUGUAUUUUUUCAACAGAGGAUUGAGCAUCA | 16 ratio |
| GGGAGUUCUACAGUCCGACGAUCGUUGCCAGCUUCCGGUUCCGUUGGGCUAGCAAGCUCCCUGAGCUACGUGUCUCUACGCUCUCAAUCCGCCAUCCAACAAACAUGGAUCAGGUAAUGCAGUUUGUGGAUGAGCCAAGUCAGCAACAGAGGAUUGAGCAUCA | 0.0414 ratio |
| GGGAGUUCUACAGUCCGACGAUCUCUUAACUUAUUCAUUUAACUUAUUUUUAUAGCUAGAGCAAUAUUGUUAGUCUUAGACAAUAGCUCACAUCUUUACAGAAGCAUGCCCUCCCUGUCCAUUUGUCUUAUAACAUGACCCAGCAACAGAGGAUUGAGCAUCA | 64.3 ratio |
| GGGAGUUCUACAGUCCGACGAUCAGAAUCUGUGACUGGCUUUACUUAAUUGGUCAUUGGUAGCUUAACAAACAUGGAGAUAAGAUUAGAAAUCUUGACAUCAACAGGUAUUAAGCAGAAAAAACCAUGGCCACGUGUCUCCUGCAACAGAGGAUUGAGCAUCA | 0.114 ratio |
| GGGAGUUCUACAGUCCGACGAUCCGCUGGCGUUGAACUGUGGACUCUGAUGGCCUCCAUCUCUCAGGCACGUGUGCCUUCUCUUAGUCCCUGUUUUCGGGAUGUUAUGAACAGUAUCAUGGUGGUUUGAAAGCACCAGCUUUGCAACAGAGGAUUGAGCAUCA | 0.104 ratio |
| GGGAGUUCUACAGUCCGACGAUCCACGUGUCUGCAGUACUUGAUGUGGACUACUCUCCCACUGGGAAGGAGUUUGUGUCUGCCAGCUUUGAUAAAUCUAUUAGAAUCUUUCCUGUGGACAAGAGCCGAAGCAGGGAAGUGUAUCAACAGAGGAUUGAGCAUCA | 0.187 ratio |
| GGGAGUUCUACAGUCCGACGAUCGUGACUGACAUUAAAAUUUCCCCUCAGCAAAGAAGUGCAGUAGUCACCAUAAUUCCAUCUGUGGUGAGUGCCAGUCAGAUUGUGGAGCUGGUCCCAGAACUCAGUUUAGACAUGGGAACUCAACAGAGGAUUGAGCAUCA | 0.4 ratio |
| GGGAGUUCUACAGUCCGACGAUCUCUGGUCACACUCGUGUAUAUGGUGUGUGCUUUGUGGACACUUCACUGGGCAAGUUUUUCAUAGGUCAGUUUUCGGAUGACCGCCACUGUUCCAGAUUUAGGACGCUAGUGGCUCACUAUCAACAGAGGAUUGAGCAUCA | 0.273 ratio |
| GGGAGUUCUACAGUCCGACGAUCACUCUUGACUCUUUCCAUCCUCUUCCUUUUCCUCUUGAUAUUCAAGGCCAUGAAUCCCAAAAUAACAGUCUUAGUGGCUAGCACCCAAACAGAGGUGGAAUAAAUCCAAACUGACAACUCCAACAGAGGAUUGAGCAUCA | 0.554 ratio |
| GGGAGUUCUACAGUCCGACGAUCUUGCUACUGACUCCCUGGGUCAAGUUCCUGUGGGAAUCAUACAGGCAGUGUUUGGACCUUCUUCGAAACAAUUCUAGAGUAGAGCGCCUUUACCAUGAUAUUGCCCAACAAGCUUUCAAACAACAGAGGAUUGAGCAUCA | 0.101 ratio |

Block 3
Target: POU domain, class 5, transcription factor 1, POU domain (Pou5f1, Mus musculus, UniProt P20263, residues 131-289)
Sequence of UniProt P20263 (131-289, looked up): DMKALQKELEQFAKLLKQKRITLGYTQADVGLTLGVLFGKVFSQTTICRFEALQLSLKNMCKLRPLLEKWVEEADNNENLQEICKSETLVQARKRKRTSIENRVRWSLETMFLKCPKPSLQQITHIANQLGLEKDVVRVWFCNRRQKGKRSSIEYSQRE
Method: Spec-seq
Molecule type: double-stranded DNA, one strand shown
Sample: in vitro
Concentration: not given
Setting: whole probe, mean of replicates
Relative to: not given
Reading: lower = stronger binding
Shared flanks, not repeated: GAGTCGTCTCGTCAGCAC … CCGTAGAGCACTCAGGTC
| Oligonucleotide | relative binding energy [ln ratio] |
| --- | --- |
| ATGCAGTA | 0.242 |
| ATGCAGGA | 0.129 |
| GGGTTAAT | 0.75 |
| ATGCAAAT | -2.22 |
| CGTCTAAT | 1.1 |
| TATATAAT | 0.245 |
| CAGGTAAT | 0.992 |
| ATTCGTAT | 0.216 |
| ATGCCATA | 0.49 |
| ATGCGAAG | 0.32 |
| AGTATAAT | 0.36 |
| ATTCACAT | -0.0531 |
| ATAGGCAT | 0.341 |
| CTATTAAT | 0.232 |
| ATGCTATT | -0.0278 |

Block 4
Target: Histone acetyltransferase KAT6A, both winged helices, GST fusion (KAT6A, Homo sapiens, UniProt Q92794, residues 1-181)
Method: protein binding microarray
Molecule type: double-stranded DNA, one strand shown
Sample: in vitro
Concentration: not given
Setting: 8-mer, flanks averaged, mean of 2 arrays, mostly near background
Relative to: not given
Reading: higher = stronger binding
Residues (chain): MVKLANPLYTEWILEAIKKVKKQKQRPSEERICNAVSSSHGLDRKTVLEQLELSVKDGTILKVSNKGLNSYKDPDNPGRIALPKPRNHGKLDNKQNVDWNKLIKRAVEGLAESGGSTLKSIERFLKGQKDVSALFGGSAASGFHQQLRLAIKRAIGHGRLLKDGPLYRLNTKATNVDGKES
| Oligonucleotide | E-score |
| --- | --- |
| CAAGGAAC | 0.0331 |
| CACGGTAC | 0.174 |
| ATCGCCTC | -0.118 |
| AAAAGTGC | -0.0085 |
| AACGCACT | 0.129 |
| CTGGGATA | -0.109 |
| GACCCCAC | -0.204 |
| GTCAGGAA | -0.0525 |
| AGGCGCCC | 0.16 |
| CGTTAGAG | 0.00474 |
| ACGTTTCA | 0.0142 |
| GGCGCGTA | 0.31 |
| GAAGGTGA | -0.00525 |
| AAACCGGC | 0.26 |
| GCAGAATA | -0.105 |
| AAGCTTAT | -0.00453 |
| ATGGACGA | 0.0974 |
| AGGTTGCC | 0.0229 |
| GAAGCTAA | 0.0316 |
| GCCACTCA | -0.0306 |
| CGGAAGAC | 0.181 |

Excerpt of the above (block 3):
| Oligonucleotide | relative binding energy [ln ratio] |
| --- | --- |
| CTATTAAT | 0.232 |
| ATGCGAAG | 0.32 |
| ATGCAGGA | 0.129 |
| GGGTTAAT | 0.75 |
| ATGCCATA | 0.49 |
| TATATAAT | 0.245 |
